# Results of several laboratories.
# Every numbered part comes from another study and shows a few of its results, in no order. Changes are numbered by the printed parent chain.

# Block 1 — technique: RNA Bind-n-Seq; form: RNA; medium: in vitro; tested at: not given; notes: RNA with constant flanks, ends assumed; relative to: input RNA pool; reading: higher = stronger binding
# Target: RING finger protein unkempt homolog, zinc fingers 1-6, GST-SBP tag (UNK, Homo sapiens, UniProt Q9C0B0, residues 30-357)
# All sequences stand within: GGGAGUUCUACAGUCCGACGAUC … CAACAGAGGAUUGAGCAUCA
# Residues (chain): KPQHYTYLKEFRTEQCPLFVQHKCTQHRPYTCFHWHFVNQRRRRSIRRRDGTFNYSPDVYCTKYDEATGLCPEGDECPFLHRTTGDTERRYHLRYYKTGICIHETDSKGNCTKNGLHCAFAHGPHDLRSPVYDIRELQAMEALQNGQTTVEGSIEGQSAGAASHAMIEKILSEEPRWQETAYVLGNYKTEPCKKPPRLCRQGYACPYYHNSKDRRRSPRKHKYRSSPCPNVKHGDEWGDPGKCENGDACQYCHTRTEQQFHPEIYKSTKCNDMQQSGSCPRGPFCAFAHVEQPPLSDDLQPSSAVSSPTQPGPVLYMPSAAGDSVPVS
Strand,bound/input enrichment [ratio]
UCCUUUGUCCUUGGAUUACUUAAGAGUUCCCAGAAAUACAUUUGCCACCAACAGAGCCGCCAAAUUUAUAAGGAAAAAUGAUUCCCAAUGGAUAUUUGAUGUUUGAGGAUGAAAAUUUUA,0.512
AAGUUUGGAUUUGAAAUUAGUUUUCCUGAAUUUUGUUUAAAAGGAGUUACGCCUACGAAUGUCCGUGCGUAUAAUUUAAAUACCUGCUUCCUUGCCAAGAAGAUAGCAUCUUCUAAGGUU,0.52
GGAGGUCAGGUUCCUGACACAAACUACAUAUUUAUGGGUGAUUUUGUAGACAGAGGUUACUACCGUUUGGAGACCUUCACUUACCUUCUUGCAUUAAAGGCUAAAUGGCCUGAUCGUAUU,0.289
UCACAGGCAGGUUUAAUGGCCAGUUUAAAACUUAUGCUAUCUGCGGGGCCAUUCGCCGGAUGGUGAGUGUUUCCCUGGGCUUUGCUCAUCACUUCGGGACAUCGUGGACUUUACCGUGCG,0.098
GUGAACCCAGUGGAAUUCUUCCGCCCUGAUAUUUCUCUGUUGGACAGAGACAAUGUUGGAUCCGUUUUACUCUUACAGCCCAAAAUUCCAUAUGCUGCCUGCCCUGCAAUCUGCGUAGCA,0.322
CAGAGAAGGGAAGAAAGUGAUCCUGAAUAUCGGUCCAGCAAAUCAAAGCCAUUGACCCUAUCCGAAUAUAAUUUAACUAUGGACACUGCAAAGCUGUUUAUGUCCUGCCUUCACGCCUGG,0.196
CGAAAUUGGGAUGACAUGAAACACCUGUGGGACUACACAUUUGGACCAGAGAAACUUAAUACCGAUACCAGAAAUUGUAAAAUCUUACUCACAGAACCUCCUAUGAACCCAACCAAAAAC,0.195
AUAGAAGACAGGGAUAAUACCUUUAUCUCUGGCCACUCAAAAAUGCAGUGCCAGGAGUGCUAAACCCCGAGGCCAAUACUGAUGACCUGGAAGGUGAUCCAUAUGAUUGUCACCACAAAG,0.16
CGCGCAGGGAUGGAGGCCUGUCUUGUUCCCGCCAAUUCUCGUGUCAGUCCUGUCCGGGUCCCGUUCUUUACUUCAUGGAGCCAUUUGAUCCUGCGGAGCUGCCGGAGCUACUCAAGCUUU,0.0365
UCACACUUAUAUUGUGGCAUAUAGUCAACAUGGAAGUAGACCAGCUCUGCUGAUUUGAAAUUCCGAUUUUUUAAAUUAUGUACUGGGGACAGGUUUUUGUCGCUUUACAUUGCUUCCUAG,0.349

# Block 2 — target: UBE2I UBC core domain (UniProt P63279); technique: yeast two-hybrid; medium: yeast; notes: mostly zero background; relative to: not given; reading: higher = stronger interaction
# B1: RNF187 RING domain (UniProt Q5TA31); chain ALPAGPAEAACALCQRAPREPVRADCGHRFCRACVVRFWAEEDGPFPCPECADDCWQRAVEP
# B2: RNF183 RING domain (UniProt Q96D59); chain EQQGRELEAECPVCWNPFNNTFHTPKMLDCCHSFCVECLAHLSLVTPARRRLLCPLCRQPTVLASGQP
# B3: DEF8 RING domain (UniProt Q6ZN54); chain AGRLGCSLTEIHTLFAKHIKLDCERCQAKGFVCELCREGDVLFPFDSHTSVCADCSAVFHRDCYYDNSTTCPKCARLSLRK
# B4: ANAPC11 RING domain (UniProt Q9NYG5); chain GICRMAFNGCCPDCKVPGDDCPLVWGQCSHCFHMHCILKWLHAQQVQQHCPMCRQEWKFKE
# B5: TRIM37 RING domain (UniProt O94972); chain SVESIAEVFRCFICMEKLRDARLCPHCSKLCCFSCIRRWLTEQRAQCPHCRAPLQLRELVN
# B6: MEX3B RING domain (UniProt Q6ZN04); chain SGLRRKGSRDCSVCFESEVIAALVPCGHNLFCMECANRICEKSEPECPVCHTAVTQAIRIF
# B7: RNF166 RING domain (UniProt Q96A37); chain GDSGLEAQYTCPICLEVYHRPVAIGSCGHTFCGECLQPCLQVPSPLCPLCRLPFDPKKVDK
# B8: TRIM60 RING domain (UniProt Q495X7); chain ALVNLQEESSCPICLEYLKDPVTINCGHNFCRSCLSVSWKDLDDTFPCPVCRFCFPYKSFRR
# B9: TRIM54 RING domain (UniProt Q9BYV2); chain SMDNLEKQLICPICLEMFSKPVVILPCQHNLCRKCANDVFQASNPLWQSRGSTTVSSGGRFRCPSCRHEVVLDRHGV
Molecule,lacZ reporter activity
B1 (RNF187 RING domain),0
B2 (RNF183 RING domain),0
LGTKLEAKYLCSACRNVLRRPFQAQCGHRYCSFCLASILSSGPQNCAACVHEGIYEEGIS (TRAF2 RING domain (UniProt Q12933)),0
B3 (DEF8 RING domain),0
B4 (ANAPC11 RING domain),0
B5 (TRIM37 RING domain),0
B6 (MEX3B RING domain),0
B7 (RNF166 RING domain),0
B8 (TRIM60 RING domain),0
YPEEVDDDLICHICLQALLDPLDTPCGHTYCTLCLTNFLVEKDFCPMDRKPLVLQHCKK (LNX1 RING domain (UniProt Q8TBB1)),0
B9 (TRIM54 RING domain),0

# Block 3 — technique: RNA Bind-n-Seq; form: RNA; medium: in vitro; tested at: 365 nM; relative to: no-protein control; reading: higher = stronger binding
# Target: RNA binding protein fox-1 homolog 2, RRM domain, GST-SBP tag (RBFOX2, Homo sapiens, UniProt O43251-10, residues 100-194)
# Notes: natural RNA segment, single round, ends assumed
# All sequences stand within: GGGAGUUCUACAGUCCGACGAUC … UGGAAUUCUCGGGUGCCAA
# Target sequence (chain): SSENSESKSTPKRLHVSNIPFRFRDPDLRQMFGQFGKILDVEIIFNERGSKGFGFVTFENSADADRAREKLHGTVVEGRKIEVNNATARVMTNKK
Strand,RBNS enrichment (R)
UCUAAAGAGAGUGAGCAUGAGCUCACUCCAUCACUCGAUGAGAUAAUAUGAGAUUUCUACUUCGGAGAGGCCAAGUCUAAUGAAGAGAAAAAAAGGAAAAGAAGUUGCAA,0.453
AGCCACGCCACUCUUACUCAGUUCAGUGGGUGUGCUUGCGUGGUAGGAUGUGGUGCAGCCCUCUCUACGCUCUUCUAUUUUUGGUAUAUUUCCUAUCUAACCUUCAAAUA,0.574
AGUUAACUUUAAAGUAUAUACAGUUUGCAAAAAAUGAUUCAAAUUAAUUGGUUUGUAUAUGUUUGUGAGAUCUAGCUUCUGAGGAAUCUCAUACAUAGUAGGAACCAUCA,0.857
CACAACUGUAUGUGACCAAAAGACACAUUUUGUGUCACUCCUGCUUUCCUGUCAGCUGUUGACACCUUGGUAGGAGCUCUCAUUAUUACAUUCUCCAUUCUCCAUUUCCC,0.572
UGAAAAUUAUGAAUUUUUUAUCCAUUACUAACCUUUAAUUUAAUCAAUCAUGUACUUUAGUUUAAUGUAUAAAGAUUUUCUAGGAAAUGAUAUUGUGUAUUAAGACAUUC,0.507
GCUACAAAUACCUUAAAAAUGAUAGAUUGAUGAUUUCCUUAAUUCCUAGAAUUUCUUUUAUAAAUGCUUUGUUUACAUUUUAGAUUGUAUCUGUCCUUAAUGUCAAAUGA,0.613
UUUUUUGAGACAGGAUCUCACUCUGUUGCCAGGGCUGUAGUGCAGUGGUGUGAUCAUAGCUCACUGCAACCUCCACCUCCCAGGCUCAAGCCUCCCGAAUAGCUGGGACU,0.295
UUAACGCACGCACAGACUUACAUGUCAAGAGUGGACUUUAGACUUUCAUGUGUUAAGUUGCUUGAGUUACACCUUGUGACCCUUCUCCCAUAACAUGGUGUGAGGACGGA,3.72
ACCGCGUGUGUUGCCCCUGCCCUGGGCUCCCCGCCAUGACAUCUUCACCUUGCAGCUUGUGCUGAGACUGACCCAAGUGCAGCUAGCACUGGGACACAGAUCCUUGUCUU,0.407
UGGAGAGGGGACCUGCGAAGGAAAACAGGGAGGAAGUGAGCGGUUUGAUCAGCCUGCUAUCACGGUGUUCUGGCUCUCUUAUUUAGCCAGGCGCUUAAGGGACAGAUACA,0.694
AACUCUGACUUGUGCCAACAAUAGGAUGACCCAAGGGAGAGGAAACCUAUCCUCCUCACCAGAAGAGCCUGUGUUUUUCUGCUGAACACCCACUGUUCCUGAGGACUCCU,0.163
CCUGGCAAGUGGCCACGCCCUGUGUCAGACCAUCUGGGAAUUAAGCUCCAGACAGACUUACAGAUGCCUUCCUUAGGAGUUCUUGCUUCUUGCGUUGAUACUUUGCCCCA,0.381

# Block 4 — technique: DHFR PCA, deep sequencing; medium: yeast; added: (+)-ABA 1.4 µM; relative to: wild-type fitted maximum; reading: higher = stronger binding
# Target: ABI1, truncated, D143A, DHFR fusion (Arabidopsis thaliana)
# Notes: methotrexate growth selection, single substitutions
# Parent: PYL1, truncated, DHFR fusion (Arabidopsis thaliana); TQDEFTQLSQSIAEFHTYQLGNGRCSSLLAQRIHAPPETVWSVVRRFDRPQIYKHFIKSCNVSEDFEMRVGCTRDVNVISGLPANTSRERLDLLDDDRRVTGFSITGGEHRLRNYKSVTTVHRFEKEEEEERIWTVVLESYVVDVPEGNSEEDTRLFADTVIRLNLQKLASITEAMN; partner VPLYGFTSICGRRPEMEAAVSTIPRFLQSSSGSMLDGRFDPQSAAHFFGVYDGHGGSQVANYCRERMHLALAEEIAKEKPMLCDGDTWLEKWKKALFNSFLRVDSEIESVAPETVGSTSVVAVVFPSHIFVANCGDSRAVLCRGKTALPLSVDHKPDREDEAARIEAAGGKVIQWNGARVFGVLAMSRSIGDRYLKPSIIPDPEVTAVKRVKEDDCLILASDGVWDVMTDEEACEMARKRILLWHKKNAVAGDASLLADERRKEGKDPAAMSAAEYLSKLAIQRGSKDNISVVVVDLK
Substitution,relative binding score [%]
I133S,69.7
I52T,60.3
T6A,77.9
T154H,-17.7
E128N,72.1
V40R,6.26
Q10L,45
A35V,9.84
E127Q,68.4
G102L,-5.72
E67P,29.4
L28T,26.9
L166A,7.68
K126W,39.1
H34I,25.8
R49L,18.3

# For quick reference, copied from above (block 2):
Molecule,lacZ reporter activity
B6 (MEX3B RING domain),0
B1 (RNF187 RING domain),0
B8 (TRIM60 RING domain),0
LGTKLEAKYLCSACRNVLRRPFQAQCGHRYCSFCLASILSSGPQNCAACVHEGIYEEGIS (TRAF2 RING domain (UniProt Q12933)),0
